# Results from different studies.
# Every numbered part comes from another study and shows a few of its results, in no order.

# Block 1
# Target: Histone acetyltransferase KAT6A, winged helix 1, GST fusion (KAT6A, Homo sapiens, UniProt Q92794, residues 1-85)
# Method: protein binding microarray
# Form: double-stranded DNA, one strand shown
# Medium: in vitro
# Concentration: not given
# Notes: 8-mer, flanks averaged, mean of 2 arrays, mostly near background
# Reference: not given
# Direction: higher = stronger binding
# Construct (chain): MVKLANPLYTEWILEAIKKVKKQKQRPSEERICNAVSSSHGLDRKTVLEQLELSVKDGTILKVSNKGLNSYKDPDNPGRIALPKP
Sequence,E-score
ATACAGAC,-0.162
AAACACCA,-0.0703
AACTAGGG,-0.0813
CATTAGGC,-0.0187
CATATAAC,-0.0603
CGCGCGGA,0.451
CTTACGAA,-0.241
CCTTCCAA,-0.187
AAGGACTT,-0.199
CCCCAAAA,-0.229
GGTCGGAA,0.0424
GTGAAGTA,-0.0906
CCTCAGAG,-0.125
CCATATAC,0.0424
CGAACACG,0.128
ATGGGTTG,-0.15
ATGGCCCG,0.309
CGTGCGCC,0.371

# Block 2
# Target: Interferon regulatory factor 7, full length, phosphomimetic (IRF7, Homo sapiens, UniProt Q92985, residues 1-503, S101K/S471D/S472D/S475D/S476D/S477D/S483D/S484D/S487D)
# Sequence of UniProt Q92985 (whole entry, unmodified, looked up): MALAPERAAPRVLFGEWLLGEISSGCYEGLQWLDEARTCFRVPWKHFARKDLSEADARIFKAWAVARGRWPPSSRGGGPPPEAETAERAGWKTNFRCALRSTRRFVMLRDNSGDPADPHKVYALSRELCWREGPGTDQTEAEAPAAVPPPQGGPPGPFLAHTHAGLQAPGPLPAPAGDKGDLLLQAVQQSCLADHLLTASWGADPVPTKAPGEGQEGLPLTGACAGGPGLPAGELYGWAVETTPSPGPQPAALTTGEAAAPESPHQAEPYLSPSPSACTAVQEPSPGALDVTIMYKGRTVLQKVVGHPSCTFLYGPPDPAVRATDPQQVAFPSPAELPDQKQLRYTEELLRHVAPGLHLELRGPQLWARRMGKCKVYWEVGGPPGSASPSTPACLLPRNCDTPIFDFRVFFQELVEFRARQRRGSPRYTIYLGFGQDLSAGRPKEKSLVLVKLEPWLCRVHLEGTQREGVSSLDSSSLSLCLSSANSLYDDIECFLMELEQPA
# Method: protein-binding microarray
# Form: double-stranded DNA, one strand shown
# Medium: in vitro
# Concentration: 250 nM
# Notes: 60-bp whole probe
# Together with: salmon DNA 0.4 mg/ml
# Reference: random background probes
# Direction: higher = stronger binding
# Shared flanks, not repeated: GCCTAGCAC … GTCTTGATTCGCTTGACGCTGCTG
Sequence,log fluorescence
GACGGTCTCGGTCTCGTGACGTGCTAG,0.65 z-score
TTCTGATCCATTTTGGTTTTGTGCTAG,0.49 z-score
TCATTTCTCTGCTACCCTACTGTGCTA,1.93 z-score
GACTATTTCAGTTCCGAGACGTGCTAG,1.13 z-score
GACGGTATGCTACTGCTGACGTGCTAG,-0.796 z-score
TTAGGCATCCTACTGCTTTAGTGCTAG,-0.53 z-score
ACAAGTTTCTCCTTTCCAAAGTGCTAG,3.56 z-score
GACGGACTGGGTCTCGGGGCGTGCTAG,-0.53 z-score
GACGGTATCGGTATCGGGAGGTGCTAG,1.13 z-score
TTAGGTCTGGGGACTGGGTTAGTGCTA,-0.387 z-score
GACGGTAGCGACTATCGGGACGTGCTA,-0.936 z-score
GACGGTATCCTTCTCTTGACGTGCTAG,0.106 z-score
CTCATTCGTCATTTCACAGTGTGCTAG,1.35 z-score
GTAAGCAAAAATGATTGGTTGTGCTAG,-0.0249 z-score
GCGCCTGTAGCCCCTCCAGGGTGCTAG,-0.614 z-score
GACGCTATCGGGACTGGGGACGTGCTA,-0.165 z-score
TTAGGTAACGGTCTCGGTTAGTGCTAG,1.29 z-score
TTAGGTATCGGTCTCGGGTAGTGCTAG,1.07 z-score
TTAGGTTTCGGTATCGGTTTGTGCTAG,11.3 z-score

# Block 3
# Target: RNA binding protein fox-1 homolog 2, RRM domain, GST-SBP tag (RBFOX2, Homo sapiens, UniProt O43251-10, residues 100-194)
# Method: RNA Bind-n-Seq
# Form: RNA
# Medium: in vitro
# Concentration: 365 nM
# Notes: natural RNA segment, single round, ends assumed
# Reference: no-protein control
# Direction: higher = stronger binding
# Shared flanks, not repeated: GGGAGUUCUACAGUCCGACGAUC … UGGAAUUCUCGGGUGCCAA
# Target sequence (chain): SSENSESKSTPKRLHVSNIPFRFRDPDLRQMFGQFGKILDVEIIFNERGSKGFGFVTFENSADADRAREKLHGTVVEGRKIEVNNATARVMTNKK
Sequence,RBNS enrichment (R)
AUUAGGGUCUAGUUGCCCCUGGUCCUUAGCUUGCUCAGCUGCAAAAUAAGCGUGCUAAAUUAAAUUGUCUUAAGGUUUUUCCACUUCAUUUUGUGACUUUGUGUGGUUCG,0.346
UAAAGCCAGUAGUGUGGCAACAGAAUAGCACAGUAUAACUCAGUUGAGACAUGACUUCAAGACUCGAGACUUGGUAGAAUCCUUUUACUUGGCCAUCUGAGUAGAAAUAG,0.837
GAAACUAGUAGCUAACAUUGCUUCUGGAGAGCAGAAAUAAGCAUGUCUUCUGGCUACUAAGUGAUAAAAAGAACAUUAACAACCUUUAAUUACCUUCCUAGUGGGAACUU,0.606
AGAUGGCUGGACAGUGGGAGAGAGCACGUUGUGAAGCAUCCCAGCCUCGUGUUGAGGUUCCAGACUUAGAAACAGACCCCUCUGUACAGGGGGAUUGUGGUGAGUGAGAA,0.448
GGGGAAAAAACUAAAAUGUGUGGAGUGUAAACAAACUCACUGACCACGUGGCUCUUGGACCUUGAUUUAGAAAGGCUCAUACUCCCAGGAAAACACCCAUUUUGAUACAA,0.232
CAGAGAAGCAUCCUCCACAUCCUGUGUCAGAAACCCUGGUCUCCGUGGCACUUGUAACUCACCGUGCUGUCUUCUGGUCUGUGUGUGUUCUUCAAGCCAGCUCUAGGCUU,1.46
UUUCUUGAAAUGAAGGUGCCUUAAGAGAGACCAUGUAUAGAACCCAGGAAGAAAUGCAAAAUCAUGAAGAUGUUAAUGUUGGUUCUAUUUUGAUUCAACAUCACAAAAAA,0.948
AAAGGCUUUUUCCCCGCCUUUGGUUGUUAACGGCAUUCCUGAAAGCCACAUGUGUUUAUUCAUUGGGCUUGUUCUUAUCAGCAAAUAGGUUUUCUGGUUUUAUGACUUUU,0.331

# Block 4
# Target: RING finger protein unkempt homolog, zinc fingers 1-6, GST-SBP tag (UNK, Homo sapiens, UniProt Q9C0B0, residues 30-357)
# Method: RNA Bind-n-Seq
# Form: RNA
# Medium: in vitro
# Concentration: not given
# Notes: RNA with constant flanks, human-mouse chimeric sites, ends assumed
# Reference: input RNA pool
# Direction: higher = stronger binding
# Shared flanks, not repeated: GGGAGUUCUACAGUCCGACGAUC … CAACAGAGGAUUGAGCAUCA
# Residues (chain): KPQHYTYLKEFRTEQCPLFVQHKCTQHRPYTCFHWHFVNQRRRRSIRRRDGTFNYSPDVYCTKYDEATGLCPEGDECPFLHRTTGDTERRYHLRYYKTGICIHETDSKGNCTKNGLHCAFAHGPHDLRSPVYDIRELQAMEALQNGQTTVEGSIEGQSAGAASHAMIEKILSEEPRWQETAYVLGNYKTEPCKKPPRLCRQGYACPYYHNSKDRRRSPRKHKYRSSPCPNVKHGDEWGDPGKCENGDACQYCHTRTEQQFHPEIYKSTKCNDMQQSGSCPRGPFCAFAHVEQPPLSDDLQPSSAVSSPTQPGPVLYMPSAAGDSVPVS
Sequence,bound/input enrichment
UGUAGUUGAUCCCCUGCUCAUUUUUCUCUUUUCUUUCUUUCCUUUAGGAAAAGCCUAAAGAUUAGGUUGUAAGAAAAACAGAAGCCAUGUUUCGAAGGAAGACCUGUCAGGUAUUUCGUC,0.0719 ratio
GCGGCAGAAUCAUGGAGGACAUAAUGCACUUGCCCAGAGCGCGCGUCAACGCCAGCAUGUUACCACAGUAUAUCGACCGGCCCGUGUGCUUCGUGGGGAGGCUGGAAAAGAUUCAUCCCA,0.125 ratio
AUCAAAUACUUUGGGGACAUCAUUAGUGUGGGACAGAGACUGUUGCAAGGGGCCCGGAUCUUAGGGAUUCCAGUUAUCAUAACGGAACAAUACCCCAAAGGUCUUGGCAGCACCGUUCAA,0.184 ratio
AUCAAAUAUUUUGGGGACAUCAUUAGUGUGGGACAGAGACUGUUGCAAGGAGCUCGGAUUUUAGGAAUUCCAGUUAUCAUAACGGAACAAUACCCCAAAGGACUUGGCAGCACCGUUCAA,0.434 ratio
GCGGCAGAAUCAUGGUGGACAUAAUGCAGCUCCCCAAAGCGCGCGUCAACGCCAGCAUGUUACCACAGUAUAUCGACAAGCCUGUCUGCUUCGUGGGGAAGCUGGAAAAGAUUCAUCCCA,0.123 ratio
GUGUCCUGCUUUCAACUUAAAUCACUGAGGCAUCUCUACUGUUCUGUUAAAAUCAGGACUGUAGCGCUUGCCACCACCAUGAGAGUUCAGAAGCAGCCUUUCUGUGGAGGGUGGGAAUGA,0.111 ratio
GAUAAGAAAAACUUGUUGGAGACCCGCUUGCAUGUCACUGGUAGAGACCUGAGGUGUCAAAUAGCUGAAACUUUCGGAUUUCAAGAAAAUUACAUCAAGAUCGUAAUAAAUAAGAAGCAG,0.466 ratio
ACAGUUAUACACUGUUGUUUCAUUUUCAUAUAUUCUUGUAGUGUCUGCUUGCCUGUGACUUCUGGUAAAAUAAAAUAUUAAAAUUACAAUAUUUUAGCAUGGUAUUUAACAUUUUCUAAA,1.73 ratio
